Results pooled from the literature.
Lines come from different studies, so protocols differ. Changes are numbered by the printed parent chain.
FKBP3: FKBP3 1-74 (Homo sapiens, UniProt Q00688)
P1: ZYX; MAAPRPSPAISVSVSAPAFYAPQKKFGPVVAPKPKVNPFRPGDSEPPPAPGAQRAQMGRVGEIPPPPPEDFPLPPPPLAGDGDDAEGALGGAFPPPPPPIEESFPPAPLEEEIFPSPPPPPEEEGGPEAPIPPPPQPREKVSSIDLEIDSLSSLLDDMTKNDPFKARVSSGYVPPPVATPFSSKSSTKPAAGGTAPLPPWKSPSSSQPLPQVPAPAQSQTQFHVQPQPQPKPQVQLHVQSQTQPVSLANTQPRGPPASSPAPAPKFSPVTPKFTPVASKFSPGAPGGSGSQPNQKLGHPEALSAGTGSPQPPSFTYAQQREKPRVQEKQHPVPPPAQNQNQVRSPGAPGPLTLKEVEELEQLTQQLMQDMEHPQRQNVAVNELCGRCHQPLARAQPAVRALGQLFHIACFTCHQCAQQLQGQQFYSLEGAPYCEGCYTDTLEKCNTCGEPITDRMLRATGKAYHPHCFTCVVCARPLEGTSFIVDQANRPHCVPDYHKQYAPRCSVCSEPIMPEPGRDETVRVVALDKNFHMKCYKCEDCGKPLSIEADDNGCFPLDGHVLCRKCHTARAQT
P2: SPAST MIT domain, 112-195 (Homo sapiens); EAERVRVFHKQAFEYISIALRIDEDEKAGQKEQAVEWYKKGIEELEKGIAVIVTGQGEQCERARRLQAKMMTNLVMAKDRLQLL; partner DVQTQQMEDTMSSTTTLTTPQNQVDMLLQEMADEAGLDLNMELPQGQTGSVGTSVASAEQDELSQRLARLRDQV
P3: SCAP (Homo sapiens); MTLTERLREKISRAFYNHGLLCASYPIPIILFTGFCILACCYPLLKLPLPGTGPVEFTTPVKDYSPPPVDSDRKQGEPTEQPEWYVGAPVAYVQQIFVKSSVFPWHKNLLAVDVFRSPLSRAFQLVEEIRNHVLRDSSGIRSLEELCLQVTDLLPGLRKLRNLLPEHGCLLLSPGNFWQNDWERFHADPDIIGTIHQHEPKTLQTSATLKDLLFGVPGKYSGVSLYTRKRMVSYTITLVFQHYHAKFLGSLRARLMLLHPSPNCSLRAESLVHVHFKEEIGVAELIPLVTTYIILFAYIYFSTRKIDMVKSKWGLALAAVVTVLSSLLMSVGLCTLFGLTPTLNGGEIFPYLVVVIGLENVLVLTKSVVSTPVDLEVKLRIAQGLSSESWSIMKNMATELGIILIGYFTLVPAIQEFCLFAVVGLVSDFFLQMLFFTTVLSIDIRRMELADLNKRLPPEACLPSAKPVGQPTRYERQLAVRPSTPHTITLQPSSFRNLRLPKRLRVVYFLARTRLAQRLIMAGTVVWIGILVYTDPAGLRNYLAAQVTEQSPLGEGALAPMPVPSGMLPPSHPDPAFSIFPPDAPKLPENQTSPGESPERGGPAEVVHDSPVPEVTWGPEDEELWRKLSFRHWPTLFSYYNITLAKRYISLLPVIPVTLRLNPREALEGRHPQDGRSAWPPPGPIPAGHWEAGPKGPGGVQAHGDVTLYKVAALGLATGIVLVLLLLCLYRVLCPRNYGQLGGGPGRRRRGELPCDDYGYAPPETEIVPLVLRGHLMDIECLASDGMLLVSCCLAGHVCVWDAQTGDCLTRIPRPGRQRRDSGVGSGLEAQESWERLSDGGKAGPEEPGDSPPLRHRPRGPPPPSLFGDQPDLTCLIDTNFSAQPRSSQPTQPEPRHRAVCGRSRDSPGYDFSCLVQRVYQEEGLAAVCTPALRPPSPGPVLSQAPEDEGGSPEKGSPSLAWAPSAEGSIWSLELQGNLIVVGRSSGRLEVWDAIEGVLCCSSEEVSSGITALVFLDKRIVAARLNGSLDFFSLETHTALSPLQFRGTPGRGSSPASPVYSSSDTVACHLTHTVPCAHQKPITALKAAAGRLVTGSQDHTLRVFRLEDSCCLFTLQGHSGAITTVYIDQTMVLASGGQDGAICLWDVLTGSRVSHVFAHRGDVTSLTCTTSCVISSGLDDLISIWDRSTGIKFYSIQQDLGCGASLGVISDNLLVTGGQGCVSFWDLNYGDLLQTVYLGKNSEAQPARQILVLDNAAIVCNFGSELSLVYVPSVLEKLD
P4: ITGA2 cytoplasmic domain peptide (Homo sapiens); WKLGFFKRKYEKM; partner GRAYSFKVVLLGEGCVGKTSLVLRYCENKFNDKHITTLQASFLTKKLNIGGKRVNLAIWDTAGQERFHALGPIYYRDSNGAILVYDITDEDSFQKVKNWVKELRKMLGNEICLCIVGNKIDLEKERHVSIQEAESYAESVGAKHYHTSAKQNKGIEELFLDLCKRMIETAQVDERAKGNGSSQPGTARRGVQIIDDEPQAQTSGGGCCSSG
P5: FUS3 (Saccharomyces cerevisiae); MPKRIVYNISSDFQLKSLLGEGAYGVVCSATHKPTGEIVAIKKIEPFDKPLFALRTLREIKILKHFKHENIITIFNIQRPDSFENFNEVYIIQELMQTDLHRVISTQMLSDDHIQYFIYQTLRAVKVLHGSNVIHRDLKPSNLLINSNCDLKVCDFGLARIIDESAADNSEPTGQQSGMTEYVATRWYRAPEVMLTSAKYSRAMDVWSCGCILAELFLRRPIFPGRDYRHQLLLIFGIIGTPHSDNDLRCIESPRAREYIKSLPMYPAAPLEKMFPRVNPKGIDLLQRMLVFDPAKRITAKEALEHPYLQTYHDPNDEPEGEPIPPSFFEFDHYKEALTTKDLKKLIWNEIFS
Chain of UniProt P27694 (whole entry, looked up): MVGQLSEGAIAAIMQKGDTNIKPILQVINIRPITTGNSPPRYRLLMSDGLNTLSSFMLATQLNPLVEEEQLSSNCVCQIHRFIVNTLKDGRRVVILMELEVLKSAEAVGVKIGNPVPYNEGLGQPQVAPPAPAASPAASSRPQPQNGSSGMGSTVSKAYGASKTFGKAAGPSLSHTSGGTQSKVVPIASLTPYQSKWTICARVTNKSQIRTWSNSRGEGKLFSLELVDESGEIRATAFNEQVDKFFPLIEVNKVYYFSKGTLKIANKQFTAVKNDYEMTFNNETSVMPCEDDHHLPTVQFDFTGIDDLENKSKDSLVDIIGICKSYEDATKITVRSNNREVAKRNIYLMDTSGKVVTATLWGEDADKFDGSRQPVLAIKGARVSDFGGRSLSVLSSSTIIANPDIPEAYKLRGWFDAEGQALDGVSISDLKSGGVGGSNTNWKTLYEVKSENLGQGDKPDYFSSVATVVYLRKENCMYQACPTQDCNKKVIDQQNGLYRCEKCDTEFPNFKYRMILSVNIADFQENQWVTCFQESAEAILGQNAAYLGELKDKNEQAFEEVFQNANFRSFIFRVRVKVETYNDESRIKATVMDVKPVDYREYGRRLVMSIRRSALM

GGATGCCG (dsDNA 8 bp duplex)
binding (FKBP3; NMR; double-stranded DNA, one strand shown): no binding

P1 S142D S169C
relative binding (YWHAG; GST pull-down; lysate; relative to: unchanged protein, higher = more binding): 3.35

P2 H9D
Kd (CHMP1B residues 126-199 (Homo sapiens); SPR): > 519 µM

P3 I348F
signal (INSIG1 (Homo sapiens); co-IP; read off a plot, together with: 25-HC; higher = more binding): 0

P4 F5A F6A
relative binding (RAB21 residues 15-225 (Homo sapiens); fluorescence polarisation; relative to: unchanged protein, higher = more binding): 10

GGAUGCCUCCCGAGUGCAUCC (structured RNA)
binding (FKBP3; NMR; folded RNA): binds

P5 D314A D317A
Kd (STE7 residues 1-98 (Saccharomyces cerevisiae); GST pull-down): > 50 µM

TP53 (Homo sapiens)
Kd (RPA1 RPA70N (Homo sapiens, UniProt P27694); fluorescence polarisation; read off a plot): 100 µM

P3 V355A
signal (INSIG1 (Homo sapiens); co-IP; read off a plot, together with: 25-HC; higher = more binding): 0.35

P4 W1A K2A
relative binding (RAB21 residues 15-225 (Homo sapiens); fluorescence polarisation; relative to: unchanged protein, higher = more binding): 24

GAGCTGTATCGTCTTGACTG (dsDNA (Trichomonas vaginalis); 20-mer duplex)
Kd (MYB21 40-156 K51A (Trichomonas vaginalis, UniProt Q58HP3); ITC; double-stranded DNA, one strand shown): 0.962 µM

Repeated from above:
TP53 (Homo sapiens)
Kd (RPA1 RPA70N (Homo sapiens, UniProt P27694); fluorescence polarisation; read off a plot): 100 µM

P3 V355A
signal (INSIG1 (Homo sapiens); co-IP; read off a plot, together with: 25-HC; higher = more binding): 0.35
